Assay results collected from several papers.
Every numbered part comes from another study and shows a few of its results, in no order. Positions count from the first letter of the parent shown.

Series 1
Target: CCND3, cyclin fold, Cln2 fusion (human)
Technique: yeast growth competition, sequencing
Sample: yeast
Setting: weak parent motif
Reference: not given
Reading: higher = stronger binding
Starting sequence: PKN2 docking peptide (human); VSAVRKLDFSDTM
| Variant | normalised enrichment score |
| --- | --- |
| VSAVRKLDFSDQM [T12Q] | 1.03 |
| VSQVRKLDFSDTM [A3Q] | 0.17 |
| VSAVRKADFSDTM [L7A] | 0.19 |
| VSAYRKLDFSDTM [V4Y] | 0.207 |
| VSAVRKLDFLDTM [S10L] | 0.665 |
| VDAVRKLDFSDTM [S2D] | 0.121 |
| VSPVRKLDFSDTM [A3P] | 0.152 |
| VSAVRTLDFSDTM [K6T] | 0.648 |
| VSNVRKLDFSDTM [A3N] | -0.1 |
| VSAVRILDFSDTM [K6I] | 0.715 |
| VSAVRKLDFPDTM [S10P] | 0.838 |
| VSAVRKLDFSHTM [D11H] | 0.0153 |
| VSAVRKLDFVDTM [S10V] | 0.34 |
| VSAVRKLPFSDTM [D8P] | 0.163 |
| VSAQRKLDFSDTM [V4Q] | 0.707 |
| VSAVRKMDFSDTM [L7M] | 0.0694 |
| VSWVRKLDFSDTM [A3W] | -0.00566 |
| VSAVRKLDFSNTM [D11N] | 0.513 |
| VKAVRKLDFSDTM [S2K] | 0.567 |
| VSAIRKLDFSDTM [V4I] | 1.61 |
| VSAVRKLCFSDTM [D8C] | 0.441 |
| VSAVRKFDFSDTM [L7F] | 0.0334 |
| VSAVRKLDFFDTM [S10F] | 0.157 |
| VSAGRKLDFSDTM [V4G] | 0.118 |
| VSAVRKIDFSDTM [L7I] | 0.548 |

Series 2
Target: ABI1, truncated, D143A, DHFR fusion (Arabidopsis thaliana)
Technique: DHFR PCA, deep sequencing
Sample: yeast
Setting: methotrexate growth selection, single substitutions
Together with: (+)-ABA 58 µM
Reference: wild-type fitted maximum
Reading: higher = stronger binding
Starting sequence: PYL1, truncated, DHFR fusion (Arabidopsis thaliana); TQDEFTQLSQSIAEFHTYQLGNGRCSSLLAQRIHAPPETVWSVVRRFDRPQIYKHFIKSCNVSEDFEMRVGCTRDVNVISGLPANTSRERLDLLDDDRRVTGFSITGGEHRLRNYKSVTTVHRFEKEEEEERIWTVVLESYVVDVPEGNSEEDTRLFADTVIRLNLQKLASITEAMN
| Variant | relative binding score [%] |
| --- | --- |
| P83F | 10.7 |
| G102Y | -3.5 |
| Q2T | 86.3 |
| E89R | -0.313 |
| L169T | 0.773 |
| T106V | 106 |
| S171P | 14.5 |
| L164P | 7.33 |
| G102N | -4.58 |
| S59W | 56.7 |
| F157N | 3.67 |
| P36I | 46.3 |
| A175W | 66.9 |
| G71I | 6.53 |
| N85R | 91.9 |
| V40G | -9.26 |

Series 3
Target: Hepatocyte nuclear factor 3-alpha (Foxa1, Mus musculus, UniProt P35582, residues 1-468, full length assumed)
Chain of UniProt P35582 (whole entry, looked up): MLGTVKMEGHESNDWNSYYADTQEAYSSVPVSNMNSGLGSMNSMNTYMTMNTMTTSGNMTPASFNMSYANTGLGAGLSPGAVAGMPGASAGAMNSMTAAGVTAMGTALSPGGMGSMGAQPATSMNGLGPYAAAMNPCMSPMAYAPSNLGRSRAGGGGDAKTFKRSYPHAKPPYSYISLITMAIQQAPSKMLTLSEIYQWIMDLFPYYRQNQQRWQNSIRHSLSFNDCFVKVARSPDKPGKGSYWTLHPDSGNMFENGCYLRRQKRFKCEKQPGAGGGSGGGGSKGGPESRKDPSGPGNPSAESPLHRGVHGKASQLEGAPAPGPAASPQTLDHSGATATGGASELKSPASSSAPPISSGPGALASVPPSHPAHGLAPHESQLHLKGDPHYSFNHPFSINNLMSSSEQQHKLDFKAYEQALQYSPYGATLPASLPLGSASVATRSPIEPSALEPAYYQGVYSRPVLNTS
Technique: EMSA with sequencing
Molecule type: double-stranded DNA, one strand shown
Sample: in vitro
Tested at: 10 and 20 nM
Setting: whole designed probe, mean of two concentrations, ends assumed
Reference: negative control set to 0
Reading: higher = stronger binding
All sequences stand within: GTGAGCGGTGCCCATTGATGGGGAAC … TTTCACTGGGATCGTGGGGAC
| Strand | normalised bound fraction |
| --- | --- |
| ATCTTCCCCCTCTTCCTTGCCCCACCAGCTCACCTTCCCGGGTTATTTGCAGATAGGAAAATAAATAAAGCCGGCATTCGTTAACCCTCTTCTGGCGCAAACTGCTGTTTGCTCTGGATGAATCATGGTCCTTTGGCGACGCCAGGCTGAGCACACATCAGCGCGGGAGTCAGGGCCATGATCCGGGGTGGCC | 0.357 ratio |
| TTTCCACCTAAAATATTGTCATTCAGAAGGGAATCACTTTAATATCCACAAAGGAAAATTAACATGTTATAATTTCAGCCACAATAATATCTATGTAATCTTGCATTTAATCCTACTAATTTACAATTAATTCAATTTTTCTTTTATATTCTGCATTCCACATAAAGCGATAACAGGAAAACATAAAATTCCA | -0.0491 ratio |
| AATTTTAGGCTTTTCTACTCTCAACTTCTCTCTGAACTCAAAATTGCAGTGCACCCTCATGAATCTGAGAACAATAAGATTGGCCTAACAAAGTAAACAGGAAGAAAGAATACAATTTGGATGCAGAATATCATTCAAGAAAAACATAGTAAAAGTTATAGATAAATGTAATTACTACTCATTTGCAAAACTG | 0.291 ratio |
| GTAATTCATATAACAATTAAGTACGCACTTTTGAAAAATGACATCTAATTAATAGAAACTCTTCCAAAGCAACAAGTGGGTAGCAAAACTAAGTAATCTAGAGTGCTTAAAAATGGAACTCCTGGAATGCTTTTAAACCATGTTACTTGCTTATCATTCACTGATTATTCCTGGTTTCTCTTTTCTTTCTCTA | -0.0447 ratio |
| CATTAGAGTCAAAGTTGTTAAGGGGAGCTAGTCATAGCTACCACGTGGCCAGGCATGTGGAACCAGACACCAGGATGAATCATCACACACATCTATTTACTTTAAATAATGCTGACAACCTAGTTCATAGTGACACACTACTTGAGATATATAGAATAACATTATTACCCAGTAAGTATGTGAACATTCCGAT | 0.341 ratio |
| CTGTGTGATGTGGTAATCTAAATTTGAACAGATGCCCCGCATGTTATGTCAATATTTGAATTGCTATTATGGCTATGAATCAATATTTCTTTGTAATCTTCCTTATTTCAAGTGGCTTGAATCACAGCCCTATGGTTAAATACACAGACTGTAGTTTAACTGCCTGATTTCATAACCCAACTCCAGCATTCAC | 0.406 ratio |
| ATCTTCCCCCTCTTCCTTGCCCCACCAGCTCACCTTCCCGGGTTATTTGCACAAAGGAAAATAAATAAAGCCGGCATTCGTTAACGCAGTTCTGGCGCAAACTGCTGTTTGCTCTGGATGAATCATGGTCCTTTGGCGACGCCAGGCTCCGGGAGAGCAAAGCACCGTGTCAGGGCCATGATCCGGGGTGGCC | 0.369 ratio |
| GTAGGGGTAATGAAAAACTTCTTGTGCAAGCGGCCATTAATCAGCAGTGTAACATTGCATAACGTGCTCCAAAGCACGACTCATGGGATCAGAGTACACAGCTGCATAATGCAGGCCAGTGTCTGTGCCTCCTGCTGACCTTTTCCAATGCAGAACTCGAACCATGTGATGCATGCTTCTTGCCAAGTCACTT | -0.0284 ratio |

Series 4
Target: Histone acetyltransferase KAT6A, winged helix 1, GST fusion (KAT6A, Homo sapiens, UniProt Q92794, residues 1-85)
Technique: protein binding microarray
Molecule type: double-stranded DNA, one strand shown
Sample: in vitro
Tested at: not given
Setting: 8-mer, flanks averaged, mean of 2 arrays, mostly near background
Reference: not given
Reading: higher = stronger binding
Target sequence (chain): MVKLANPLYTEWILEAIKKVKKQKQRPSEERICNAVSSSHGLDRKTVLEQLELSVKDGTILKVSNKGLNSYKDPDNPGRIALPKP
| Strand | E-score |
| --- | --- |
| CTCTTTAA | -0.146 |
| CCGGTTAA | 0.309 |
| GGACTTTA | 0.0153 |
| GGAAATTA | 0.00296 |
| ACCGGTCA | 0.133 |
| GATCCGCA | 0.158 |
| AGTAGACT | -0.049 |
| ATTATCGG | 0.0667 |
| GCCTCGCA | -0.0342 |
| ACCCTTAA | -0.0929 |
| CGCAGAGC | 0.222 |
| CCGGAGAG | 0.1 |
| TACTACTA | 0.149 |
| CGTTCGCC | 0.167 |
| GGGCTTAA | -0.00674 |
| ACGGTTAC | 0.289 |
| ATTCTCTG | -0.00353 |
| AACGACTG | -0.0254 |

Series 5
Target: RNA binding protein fox-1 homolog 2, RRM domain, GST-SBP tag (RBFOX2, Homo sapiens, UniProt O43251-10, residues 100-194)
Technique: RNA Bind-n-Seq
Molecule type: RNA
Sample: in vitro
Tested at: 365 nM
Setting: natural RNA segment, single round, ends assumed
Reference: no-protein control
Reading: higher = stronger binding
All sequences stand within: GGGAGUUCUACAGUCCGACGAUC … UGGAAUUCUCGGGUGCCAA
Construct (chain): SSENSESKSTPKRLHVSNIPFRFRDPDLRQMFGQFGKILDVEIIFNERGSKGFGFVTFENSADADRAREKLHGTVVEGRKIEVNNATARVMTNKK
| Strand | RBNS enrichment (R) |
| --- | --- |
| UCUAUAAUACUUCAUUUUAAAUGUAAAUGGCCACUCUGCAUUUGCAAGGCCCGGUGGUUGACAUCUGUGUGGUUUGUUAGAUGAGACAAAAUGACCAUUAAAUGAGUUUA | 0.764 |
| GCUAAUUUCAGCUAAGCCUUCAUCAUAAUUUGUUCCCUCAGUAAUAGGAGAAAUAUAAAUACAGUAAGUUUAGAUUAUUGAAUUGGUGCUUGAAAUUUAUUGGUUUUGUU | 1.09 |
| AAUAUGGAUCAAAAAGAGUCUUGGAUACUCAGCCCCAUAUUUUGUGCUGAACUGACAUGAACAACCGAGAAUGUCCUUCUUGGUUGUCAAAAGACAGUUUUCCAUCCUAC | 0.243 |
| UGCAGUUUAGACACAUGUUUUUGGGGUGUCUUUCUGGUGUCCAAACUUUUGAGGCACUUUUCAAAUUUAAUAAGGAACCAUGUAAGGGUAGCAGCCCCUCCCUAAAGCAU | 0.529 |
| AAGAAUAAAAGAAUUCUUUUAAUUUCAGGGAAGAUCAGAAAAGAAAGCCUAAAGCCCUUUAGCGUUGUGAACCUCAGUAGUAGCUGAAAGAGAAGCUGCCACAGGUUGUA | 0.568 |
| GGUGCUGCGUGGGGCCCUCUCCAGCCCGUCCUACCCUGGGCUCACAUGGGGCCUGUGCCCACCCCUCUUGAGUGUCUUGGGGACAGCUCUUUCCACCCCUGGAAGAUGGA | 0.484 |
| GUGGAAUCACAAGUUGCUGUGAUACUUCAUUUUUAAAUUGUGAACUUUGUACAAAUUUUGUCAUGCUGGAUGUUAACACAUCUUACUCUAAAUAAACAAGGUGUUGCCAC | 0.603 |
| AAUAAUUUUAAUGAUUCUUAAGCUAUUUGAAGGAAAGAAUAUGGAUUUCUCAUGUCUUGAGGUUUUGUUCAUGCCCCUAUGACUGACCAAUGUGAUAAGGACUUUAAAAA | 0.577 |
| UGGGCUUCUAAAUCAAAAGCCUGAUGUUCGUGUCCCUCUCAUAGGGGGAGCUUUGGACACAGGACCAGUUUGGAAAAGGGUCAGGUAAGGGUUUCCACUCUGCACAUUGU | 0.449 |
| AAAAAUGAAGCAACACUUUUUCUGUUUAAUGAGUAUUAUGAGUUGGACAGCAAAUUUUUGUCUUAAUAAAAUGUUUUUCGUAAUCAUGCAGGUCAAGUGUAGGGUUGUCA | 0.431 |
| GUCUUUCCCUCAGUAGCGGUUUCUUUCAGGUUAACAAGAGGCAUUUGUGCACACACACAGGGCUCUUGUGUGUGUUGUCAAGGGGACCCUCCGUGGCCUCCCGUGAGUGC | 0.314 |
| AGACUCUCCAGGACUGAGGACAGAGCUGCUCUUCUUCUUCUACGUUACUGUGGCCCUCUUGUCUGGCAGCCUGGAGCCCAGGGAGGGACAGGGGCUUAUAGCUGCUGUAU | 0.764 |

Repeated from above (series 1):
| Variant | normalised enrichment score |
| --- | --- |
| VSAVRKLDFPDTM [S10P] | 0.838 |
| VSAIRKLDFSDTM [V4I] | 1.61 |
| VSAQRKLDFSDTM [V4Q] | 0.707 |
| VSAVRKFDFSDTM [L7F] | 0.0334 |
| VSAVRKLDFFDTM [S10F] | 0.157 |
| VSAVRKLDFVDTM [S10V] | 0.34 |
| VDAVRKLDFSDTM [S2D] | 0.121 |
| VSNVRKLDFSDTM [A3N] | -0.1 |
| VSWVRKLDFSDTM [A3W] | -0.00566 |
| VSAVRKLDFLDTM [S10L] | 0.665 |
| VSAVRKLDFSNTM [D11N] | 0.513 |
